Measurements gathered from unrelated publications.
Lines come from different studies, so protocols differ.
4'-phosphopantetheinyl transferase PptT: 4'-phosphopantetheinyl transferase PptT (Mycobacterium tuberculosis, UniProt O33336)
Chain of UniProt O33336 (whole entry, looked up): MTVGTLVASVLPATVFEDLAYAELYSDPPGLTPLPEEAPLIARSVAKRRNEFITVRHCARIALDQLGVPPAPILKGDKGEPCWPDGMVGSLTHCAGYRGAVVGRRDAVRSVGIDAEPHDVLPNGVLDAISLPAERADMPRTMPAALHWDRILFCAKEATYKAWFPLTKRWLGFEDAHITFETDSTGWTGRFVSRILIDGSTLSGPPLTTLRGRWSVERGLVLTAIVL
Chain of UniProt P11229 (whole entry, looked up): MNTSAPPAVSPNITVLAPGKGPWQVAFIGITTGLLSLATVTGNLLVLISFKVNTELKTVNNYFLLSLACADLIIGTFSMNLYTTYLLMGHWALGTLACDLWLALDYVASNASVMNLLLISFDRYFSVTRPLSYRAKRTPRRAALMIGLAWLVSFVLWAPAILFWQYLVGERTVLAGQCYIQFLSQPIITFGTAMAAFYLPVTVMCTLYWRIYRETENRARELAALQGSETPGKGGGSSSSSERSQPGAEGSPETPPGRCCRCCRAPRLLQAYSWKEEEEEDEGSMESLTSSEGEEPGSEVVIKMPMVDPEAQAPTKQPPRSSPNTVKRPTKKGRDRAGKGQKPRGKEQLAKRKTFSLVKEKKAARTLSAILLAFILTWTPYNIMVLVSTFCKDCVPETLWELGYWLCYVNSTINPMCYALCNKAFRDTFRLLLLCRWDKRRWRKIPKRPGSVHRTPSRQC
Chain of UniProt P46098 (whole entry, looked up): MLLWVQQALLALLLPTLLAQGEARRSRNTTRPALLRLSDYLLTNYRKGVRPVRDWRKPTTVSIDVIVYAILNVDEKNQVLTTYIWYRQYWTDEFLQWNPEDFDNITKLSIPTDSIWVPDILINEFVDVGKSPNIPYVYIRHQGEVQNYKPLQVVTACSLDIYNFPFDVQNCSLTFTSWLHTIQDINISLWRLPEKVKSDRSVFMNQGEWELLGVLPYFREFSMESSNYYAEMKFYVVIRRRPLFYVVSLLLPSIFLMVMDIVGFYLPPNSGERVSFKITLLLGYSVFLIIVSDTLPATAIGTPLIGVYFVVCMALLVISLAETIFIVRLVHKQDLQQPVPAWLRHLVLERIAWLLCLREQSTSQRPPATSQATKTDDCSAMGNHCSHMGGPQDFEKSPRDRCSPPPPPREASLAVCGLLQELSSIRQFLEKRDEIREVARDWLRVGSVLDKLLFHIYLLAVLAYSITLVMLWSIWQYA
Chain of UniProt O60741 (whole entry, looked up): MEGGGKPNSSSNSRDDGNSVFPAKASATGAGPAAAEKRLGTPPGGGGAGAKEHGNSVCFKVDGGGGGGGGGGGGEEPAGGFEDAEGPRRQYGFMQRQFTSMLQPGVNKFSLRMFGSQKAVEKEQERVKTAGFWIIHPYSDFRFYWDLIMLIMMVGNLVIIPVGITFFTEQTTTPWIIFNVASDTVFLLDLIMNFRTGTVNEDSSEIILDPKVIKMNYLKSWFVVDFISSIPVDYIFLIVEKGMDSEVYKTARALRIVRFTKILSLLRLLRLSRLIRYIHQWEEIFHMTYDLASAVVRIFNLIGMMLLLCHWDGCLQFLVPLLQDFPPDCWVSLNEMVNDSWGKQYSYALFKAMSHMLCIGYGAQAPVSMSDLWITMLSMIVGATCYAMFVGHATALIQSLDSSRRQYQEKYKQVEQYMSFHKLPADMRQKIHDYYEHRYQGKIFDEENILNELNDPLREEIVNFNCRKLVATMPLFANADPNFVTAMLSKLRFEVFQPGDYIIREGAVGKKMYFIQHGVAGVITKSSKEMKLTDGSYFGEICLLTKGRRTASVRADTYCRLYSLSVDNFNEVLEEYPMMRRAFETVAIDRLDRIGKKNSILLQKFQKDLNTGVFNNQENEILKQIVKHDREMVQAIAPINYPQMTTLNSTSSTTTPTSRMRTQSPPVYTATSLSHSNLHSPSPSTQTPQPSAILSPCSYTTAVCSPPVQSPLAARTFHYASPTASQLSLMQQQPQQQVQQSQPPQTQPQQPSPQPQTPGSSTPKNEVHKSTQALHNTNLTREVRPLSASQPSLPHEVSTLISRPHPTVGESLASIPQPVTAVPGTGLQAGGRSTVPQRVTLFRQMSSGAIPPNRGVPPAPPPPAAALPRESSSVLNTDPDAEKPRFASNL
Chain of UniProt Q9UIG0 (whole entry, unmodified, looked up): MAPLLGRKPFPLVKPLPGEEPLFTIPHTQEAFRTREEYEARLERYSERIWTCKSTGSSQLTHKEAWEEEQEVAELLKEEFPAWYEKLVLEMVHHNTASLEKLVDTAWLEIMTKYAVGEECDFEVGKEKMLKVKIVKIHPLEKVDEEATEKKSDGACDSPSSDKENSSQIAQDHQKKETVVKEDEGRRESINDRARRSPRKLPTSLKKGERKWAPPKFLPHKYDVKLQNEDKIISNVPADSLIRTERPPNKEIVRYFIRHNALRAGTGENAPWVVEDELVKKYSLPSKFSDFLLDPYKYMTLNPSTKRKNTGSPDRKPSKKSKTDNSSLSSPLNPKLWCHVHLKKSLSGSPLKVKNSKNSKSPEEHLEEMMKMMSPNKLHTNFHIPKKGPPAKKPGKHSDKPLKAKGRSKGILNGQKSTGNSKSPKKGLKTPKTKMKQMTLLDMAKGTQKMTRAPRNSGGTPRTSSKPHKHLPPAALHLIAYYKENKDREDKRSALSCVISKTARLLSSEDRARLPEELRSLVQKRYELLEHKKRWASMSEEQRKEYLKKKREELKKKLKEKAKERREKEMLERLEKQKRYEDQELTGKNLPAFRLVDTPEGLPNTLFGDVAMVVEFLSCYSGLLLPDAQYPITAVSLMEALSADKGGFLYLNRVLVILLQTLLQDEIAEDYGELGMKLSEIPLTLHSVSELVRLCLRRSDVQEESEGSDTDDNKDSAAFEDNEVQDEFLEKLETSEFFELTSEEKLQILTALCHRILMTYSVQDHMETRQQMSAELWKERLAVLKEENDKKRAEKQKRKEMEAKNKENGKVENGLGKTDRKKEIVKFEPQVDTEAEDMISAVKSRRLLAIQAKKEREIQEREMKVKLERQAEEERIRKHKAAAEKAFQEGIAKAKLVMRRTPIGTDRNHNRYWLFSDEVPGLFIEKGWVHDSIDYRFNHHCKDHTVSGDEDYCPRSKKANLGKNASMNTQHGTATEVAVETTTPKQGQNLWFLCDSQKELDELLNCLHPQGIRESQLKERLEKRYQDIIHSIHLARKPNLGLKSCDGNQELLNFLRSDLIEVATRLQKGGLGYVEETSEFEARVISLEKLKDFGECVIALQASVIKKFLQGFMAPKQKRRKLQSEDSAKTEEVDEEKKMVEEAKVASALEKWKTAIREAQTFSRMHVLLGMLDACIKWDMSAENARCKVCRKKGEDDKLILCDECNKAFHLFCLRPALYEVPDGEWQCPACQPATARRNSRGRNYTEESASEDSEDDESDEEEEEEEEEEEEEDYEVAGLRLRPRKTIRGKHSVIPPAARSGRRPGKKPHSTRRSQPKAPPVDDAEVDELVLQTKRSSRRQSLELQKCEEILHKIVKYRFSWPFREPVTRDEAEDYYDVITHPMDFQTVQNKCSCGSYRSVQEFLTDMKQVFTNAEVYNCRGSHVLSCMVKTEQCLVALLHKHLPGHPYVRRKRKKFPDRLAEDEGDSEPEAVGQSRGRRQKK
Chain of UniProt Q00536 (whole entry, looked up): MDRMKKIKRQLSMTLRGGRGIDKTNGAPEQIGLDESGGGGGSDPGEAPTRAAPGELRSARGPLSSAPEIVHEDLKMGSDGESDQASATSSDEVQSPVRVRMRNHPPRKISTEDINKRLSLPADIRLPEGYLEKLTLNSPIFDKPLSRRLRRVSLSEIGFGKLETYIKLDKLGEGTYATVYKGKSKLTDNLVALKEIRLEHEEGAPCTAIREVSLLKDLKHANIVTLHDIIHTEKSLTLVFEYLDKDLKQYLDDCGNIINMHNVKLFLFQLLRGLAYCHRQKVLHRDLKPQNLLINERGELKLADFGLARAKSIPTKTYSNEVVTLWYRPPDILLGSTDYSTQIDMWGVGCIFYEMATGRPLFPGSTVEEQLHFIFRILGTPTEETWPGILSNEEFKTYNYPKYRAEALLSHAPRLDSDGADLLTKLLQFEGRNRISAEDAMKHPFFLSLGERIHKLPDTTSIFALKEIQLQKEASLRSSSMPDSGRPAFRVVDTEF
Chain of UniProt P27361 (whole entry, looked up): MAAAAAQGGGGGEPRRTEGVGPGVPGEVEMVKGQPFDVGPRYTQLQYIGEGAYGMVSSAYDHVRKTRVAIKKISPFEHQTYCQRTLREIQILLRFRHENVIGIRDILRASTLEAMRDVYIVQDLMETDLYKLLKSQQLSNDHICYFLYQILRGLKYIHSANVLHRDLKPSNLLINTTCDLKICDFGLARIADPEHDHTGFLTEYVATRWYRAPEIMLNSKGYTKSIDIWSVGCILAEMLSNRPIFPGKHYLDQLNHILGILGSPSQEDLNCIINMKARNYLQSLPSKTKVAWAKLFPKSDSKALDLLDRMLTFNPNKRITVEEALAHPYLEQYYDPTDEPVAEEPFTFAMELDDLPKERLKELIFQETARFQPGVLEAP

With `[2H]c1c([2H])c([C@]2([2H])CCCN2C(=O)C(C)(C)Oc2ccc3cn[nH]c3c2)c([2H])c([2H])c1C([2H])([2H])[2H]` the remaining binding was 75% (MAPK3 (Homo sapiens, UniProt P27361); binding, competition with immobilised ligand; 1 µM).
With `O=c1[nH]c2ccc(Cl)cc2c(=O)n1Cc1cccnc1` the IC50 was 6.08 µM (4'-phosphopantetheinyl transferase PptT; enzyme activity, inhibitor, FP).
`c1cncc([C@@H]2CCCN2)c1` has an inhibition of -0.55% (CHRM1 (Homo sapiens, UniProt P11229); cell-free assay; 50 µM).
The inhibition of `CC(C)CC(=O)OC[C@H]1O[C@@](C#N)(c2ccc3c(N)ncnn23)[C@H](O)[C@@H]1O` is reported as 6% (HTR3A (Homo sapiens, UniProt P46098); enzyme activity, inhibitor; 20 µM).
`COc1ncccc1-c1cnn2ccc(N3CCN(C(=O)OC(C)C)CC3)nc12` has a remaining binding of 100% (CDK16 (Homo sapiens, UniProt Q00536); binding, competition with immobilised ligand; 1 µM).
`O=c1c2cc(Cl)c(CF)cc2[nH]c(=S)n1Cc1cccnc1` has an IC50 of 1.77 µM (4'-phosphopantetheinyl transferase PptT; enzyme activity, inhibitor, FP).
`N.N.[Cl][Pt][Cl]` has an IC50 of 8.33 µM (K562; cell growth or viability, ATP luminescence; 72 h).
For `CC(C)NCC(O)COc1cccc2ccccc12` (centres unmarked), the inhibition was -4.84% (Potassium/sodium hyperpolarization-activated cyclic nucleotide-gated channel 1 (Homo sapiens, UniProt O60741); ion current, inhibitor; 10 µM).
`CCN(CC)CCCC[C@H](NC(=O)[C@H](CC(C)C)NC(=O)[C@H](C)NC(=O)[C@H](Cc1ccccc1)NC(=O)c1ccc(C(C)(C)C)cc1)C(=O)N[C@@H](CO)C(=O)OC` has a ΔTm of 0.37 °C (BAZ1B (Homo sapiens, UniProt Q9UIG0); thermal stability, DSF; 25 µM).
`Cc1nn(C)cc1-c1nc2c(N3CCN(Cc4ccc(Cl)cc4)CC3)c(Cl)cnc2[nH]1` has a remaining binding of 100% (EPHA6 (Homo sapiens, UniProt Q9UF33); binding, competition with immobilised ligand; 1 µM).
`Nc1ncc(-c2nc(N3CCOCC3)nc(N3CCOCC3)n2)c(C(F)F)n1` has a remaining binding of 84% (TIE1 (Homo sapiens, UniProt P35590); cell-free assay, competition with immobilised ligand; 10 µM).
